Experimental data of several laboratories.
Each numbered part is a random draw from the data of one study; scales do not carry over between parts. “And” joins repeats or separate records; there may be more than shown.
Sequence of UniProt Q14004 (whole entry, looked up): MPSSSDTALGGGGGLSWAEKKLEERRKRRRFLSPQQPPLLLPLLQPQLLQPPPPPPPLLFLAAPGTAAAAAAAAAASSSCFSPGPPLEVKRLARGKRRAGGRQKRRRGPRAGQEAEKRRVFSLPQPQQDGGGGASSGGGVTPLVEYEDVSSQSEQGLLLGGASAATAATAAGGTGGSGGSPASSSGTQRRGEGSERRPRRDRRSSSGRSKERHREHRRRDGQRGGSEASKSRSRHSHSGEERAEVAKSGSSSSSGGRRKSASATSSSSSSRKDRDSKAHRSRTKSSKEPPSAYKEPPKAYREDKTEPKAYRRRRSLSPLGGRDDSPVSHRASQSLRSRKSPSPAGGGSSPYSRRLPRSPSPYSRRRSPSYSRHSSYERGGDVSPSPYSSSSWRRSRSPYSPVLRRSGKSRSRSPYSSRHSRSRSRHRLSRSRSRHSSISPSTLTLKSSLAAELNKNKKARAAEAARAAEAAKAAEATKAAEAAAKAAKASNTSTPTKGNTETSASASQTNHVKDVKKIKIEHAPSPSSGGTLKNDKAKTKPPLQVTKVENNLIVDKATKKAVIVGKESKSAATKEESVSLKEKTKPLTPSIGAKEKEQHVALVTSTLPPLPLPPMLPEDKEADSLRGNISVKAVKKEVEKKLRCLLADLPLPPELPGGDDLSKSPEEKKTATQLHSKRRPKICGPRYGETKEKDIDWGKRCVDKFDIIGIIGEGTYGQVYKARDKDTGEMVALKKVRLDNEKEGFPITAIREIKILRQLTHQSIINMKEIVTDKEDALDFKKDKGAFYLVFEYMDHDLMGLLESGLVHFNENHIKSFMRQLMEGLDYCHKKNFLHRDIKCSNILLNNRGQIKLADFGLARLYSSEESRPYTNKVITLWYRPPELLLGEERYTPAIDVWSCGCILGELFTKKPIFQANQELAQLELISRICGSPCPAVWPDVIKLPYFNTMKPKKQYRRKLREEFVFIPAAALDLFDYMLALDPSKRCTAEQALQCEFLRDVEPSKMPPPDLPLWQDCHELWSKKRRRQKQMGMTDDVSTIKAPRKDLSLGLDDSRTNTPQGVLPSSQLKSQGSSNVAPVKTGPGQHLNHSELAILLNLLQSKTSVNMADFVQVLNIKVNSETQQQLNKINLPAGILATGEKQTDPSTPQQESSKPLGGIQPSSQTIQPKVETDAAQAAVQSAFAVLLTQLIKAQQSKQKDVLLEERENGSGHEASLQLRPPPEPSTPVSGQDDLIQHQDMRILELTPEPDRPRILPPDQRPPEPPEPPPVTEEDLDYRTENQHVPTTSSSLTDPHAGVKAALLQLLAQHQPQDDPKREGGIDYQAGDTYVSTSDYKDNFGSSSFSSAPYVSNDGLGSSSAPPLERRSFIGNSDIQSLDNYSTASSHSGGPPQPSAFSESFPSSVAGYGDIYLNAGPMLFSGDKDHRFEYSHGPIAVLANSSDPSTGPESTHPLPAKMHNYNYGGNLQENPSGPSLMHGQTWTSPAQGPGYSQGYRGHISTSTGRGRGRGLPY
Sequence of UniProt O00238 (whole entry, looked up): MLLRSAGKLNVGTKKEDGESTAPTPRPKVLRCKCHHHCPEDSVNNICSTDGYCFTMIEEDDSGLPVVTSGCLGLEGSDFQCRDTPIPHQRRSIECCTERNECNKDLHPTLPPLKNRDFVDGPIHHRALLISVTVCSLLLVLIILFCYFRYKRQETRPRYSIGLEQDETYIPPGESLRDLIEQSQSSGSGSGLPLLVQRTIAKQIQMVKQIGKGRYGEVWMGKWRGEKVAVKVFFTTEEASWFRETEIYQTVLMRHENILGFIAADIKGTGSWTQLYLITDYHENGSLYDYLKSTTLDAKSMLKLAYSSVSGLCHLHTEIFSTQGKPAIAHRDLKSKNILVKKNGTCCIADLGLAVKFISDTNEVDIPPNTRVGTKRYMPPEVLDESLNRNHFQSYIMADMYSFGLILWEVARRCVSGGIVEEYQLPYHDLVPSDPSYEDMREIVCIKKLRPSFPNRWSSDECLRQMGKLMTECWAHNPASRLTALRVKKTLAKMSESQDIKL
Sequence of UniProt Q86UX6 (whole entry, looked up): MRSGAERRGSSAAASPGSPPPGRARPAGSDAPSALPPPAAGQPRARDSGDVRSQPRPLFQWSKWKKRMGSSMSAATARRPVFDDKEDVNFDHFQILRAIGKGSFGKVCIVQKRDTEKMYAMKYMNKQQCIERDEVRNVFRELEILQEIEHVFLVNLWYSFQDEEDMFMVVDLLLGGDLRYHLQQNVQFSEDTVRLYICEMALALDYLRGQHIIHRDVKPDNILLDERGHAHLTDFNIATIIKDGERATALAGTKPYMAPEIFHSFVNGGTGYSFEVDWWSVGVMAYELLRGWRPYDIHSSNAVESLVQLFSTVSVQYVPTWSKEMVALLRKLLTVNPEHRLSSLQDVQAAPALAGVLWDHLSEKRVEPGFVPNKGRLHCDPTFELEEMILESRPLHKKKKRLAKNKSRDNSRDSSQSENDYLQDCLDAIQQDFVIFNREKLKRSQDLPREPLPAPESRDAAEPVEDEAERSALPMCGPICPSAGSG
Sequence of UniProt P51956 (whole entry, looked up): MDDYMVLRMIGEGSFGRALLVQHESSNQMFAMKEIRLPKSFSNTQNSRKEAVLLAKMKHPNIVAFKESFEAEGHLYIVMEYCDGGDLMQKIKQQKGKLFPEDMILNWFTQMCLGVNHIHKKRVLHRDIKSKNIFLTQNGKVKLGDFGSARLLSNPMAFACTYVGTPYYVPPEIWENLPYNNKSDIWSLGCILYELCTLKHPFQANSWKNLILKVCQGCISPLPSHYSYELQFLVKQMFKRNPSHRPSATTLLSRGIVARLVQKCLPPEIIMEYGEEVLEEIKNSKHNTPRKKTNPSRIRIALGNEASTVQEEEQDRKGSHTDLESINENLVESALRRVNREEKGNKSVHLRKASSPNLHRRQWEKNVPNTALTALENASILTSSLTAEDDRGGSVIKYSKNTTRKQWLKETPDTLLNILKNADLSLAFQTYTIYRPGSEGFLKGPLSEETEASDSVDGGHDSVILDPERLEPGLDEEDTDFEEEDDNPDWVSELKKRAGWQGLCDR
Sequence of UniProt Q15349 (whole entry, looked up): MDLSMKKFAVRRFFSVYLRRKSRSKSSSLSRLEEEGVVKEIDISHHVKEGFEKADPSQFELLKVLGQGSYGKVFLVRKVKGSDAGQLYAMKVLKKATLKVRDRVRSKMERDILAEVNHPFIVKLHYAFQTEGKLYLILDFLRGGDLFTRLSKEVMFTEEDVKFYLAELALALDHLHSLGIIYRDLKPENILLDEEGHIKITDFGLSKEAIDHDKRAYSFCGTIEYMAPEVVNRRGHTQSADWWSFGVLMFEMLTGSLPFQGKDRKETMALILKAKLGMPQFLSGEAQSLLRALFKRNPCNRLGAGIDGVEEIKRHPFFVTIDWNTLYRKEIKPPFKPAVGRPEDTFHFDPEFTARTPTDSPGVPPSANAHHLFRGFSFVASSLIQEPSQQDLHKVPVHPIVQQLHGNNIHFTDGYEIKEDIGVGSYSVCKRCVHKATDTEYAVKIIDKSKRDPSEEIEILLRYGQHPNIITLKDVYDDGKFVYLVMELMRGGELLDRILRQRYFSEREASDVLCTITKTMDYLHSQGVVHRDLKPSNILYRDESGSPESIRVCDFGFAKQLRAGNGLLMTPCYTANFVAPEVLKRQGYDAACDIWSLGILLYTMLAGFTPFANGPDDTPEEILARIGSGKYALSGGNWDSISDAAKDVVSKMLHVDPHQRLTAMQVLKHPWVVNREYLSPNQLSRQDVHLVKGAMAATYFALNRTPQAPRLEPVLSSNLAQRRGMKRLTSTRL

Sample 1 — read-out: cell-free assay; technique: competition with immobilised ligand; tested at: 1 µM
SMILES: O=C(NC[C@@H]1[C@H]2CN(C(=O)OCc3cc(C(F)(F)F)cc(C(F)(F)F)c3)C[C@@H]12)c1ccc2[nH]nnc2c1
target	remaining binding [%]
Cyclin-dependent kinase 13 (CDK13, Homo sapiens, UniProt Q14004)	85
Serine/threonine-protein kinase 10 (STK10, Homo sapiens, UniProt O94804)	100
Bone morphogenetic protein receptor type-1B (BMPR1B, Homo sapiens, UniProt O00238)	95
Serine/threonine-protein kinase Nek3 (NEK3, Homo sapiens, UniProt P51956)	100
Serine/threonine-protein kinase 32C (STK32C, Homo sapiens, UniProt Q86UX6)	90
Ribosomal protein S6 kinase alpha-2, N-terminal kinase domain (RPS6KA2, Homo sapiens, UniProt Q15349)	100
Ribosomal protein S6 kinase alpha-4, N-terminal kinase domain (RPS6KA4, Homo sapiens, UniProt O75676)	100

Sample 2 — organism: Sarcocystis neurona; read-out: parasite growth; tested at: 10 µM; time: 96 h; setting: secondary screen
SMILES	inhibition [%]
COCCCC/C(=N\OCCN)c1ccc(C(F)(F)F)cc1	-22.5
CCn1cc(C(=O)O)c(=O)c2cc(F)c(N3CCN(C)CC3)cc21	0.5
CN1[C@@H]2C[C@@H](OC(=O)[C@H](CO)c3ccccc3)C[C@H]1[C@@H]1O[C@@H]12	-21.7
C#C[C@]1(O)CC[C@H]2[C@@H]3[C@H](C)CC4=C(CCC(=O)C4)[C@H]3CC[C@@]21C	-21.7

Sample 3 — cell line: HH; technique: CCK-8
SMILES: CC(C)(C)c1cnc(CSc2cnc(NC(=O)C3CCN(C(=O)CCCSc4cccc5c4C(=O)N(C4CCC(=O)NC4=O)C5=O)CC3)s2)o1 (stereo not drawn)
setting	viability
200 nM	91.3% and 92.9%
250 nM	81.4% and 84.2%
500 nM	18.4% and 17.5%
10 nM	100% and 97.3%

Sample 4 — read-out: enzyme activity; mode: inhibitor; tested at: 0.5 µM; baseline: control
Target: BDNF/NT-3 growth factors receptor (NTRK2, Homo sapiens, UniProt Q16620)
Sequence of UniProt Q16620 (whole entry, looked up): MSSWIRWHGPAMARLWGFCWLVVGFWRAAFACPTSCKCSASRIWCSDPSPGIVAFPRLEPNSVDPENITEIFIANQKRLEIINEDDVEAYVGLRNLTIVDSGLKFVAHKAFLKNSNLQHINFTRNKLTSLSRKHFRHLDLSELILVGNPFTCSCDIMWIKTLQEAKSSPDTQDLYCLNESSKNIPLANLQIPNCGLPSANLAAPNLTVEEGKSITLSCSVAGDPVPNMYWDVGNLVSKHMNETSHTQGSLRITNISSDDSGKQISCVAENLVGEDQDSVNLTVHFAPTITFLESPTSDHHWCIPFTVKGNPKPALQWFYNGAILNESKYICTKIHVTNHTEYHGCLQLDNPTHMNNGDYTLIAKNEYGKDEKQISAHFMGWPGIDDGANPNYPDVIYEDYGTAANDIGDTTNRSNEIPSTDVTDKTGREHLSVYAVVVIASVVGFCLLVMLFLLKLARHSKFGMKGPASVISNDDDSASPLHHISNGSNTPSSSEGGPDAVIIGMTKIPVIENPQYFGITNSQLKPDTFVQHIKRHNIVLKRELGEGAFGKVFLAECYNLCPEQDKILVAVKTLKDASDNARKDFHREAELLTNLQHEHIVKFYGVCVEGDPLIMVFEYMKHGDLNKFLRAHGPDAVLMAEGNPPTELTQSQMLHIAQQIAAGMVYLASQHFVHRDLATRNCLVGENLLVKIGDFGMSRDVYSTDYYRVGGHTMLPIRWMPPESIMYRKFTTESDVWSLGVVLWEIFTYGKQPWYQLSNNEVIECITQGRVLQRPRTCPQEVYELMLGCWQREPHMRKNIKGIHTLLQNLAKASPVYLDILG
Structure (SMILES)	remaining activity
Cc1cccc(-c2[nH]c(C(C)(C)C)nc2-c2ccc3c(c2)OCO3)n1	96.4%
N#CC(C#N)=C(N)/C(C#N)=C/c1ccc(O)cc1	95.4%
CN(C)c1ccc(C=C2C(=O)Nc3ccccc32)cc1	54.8%
O=C(O)c1ccc2c3c1cccc3c(=O)n1c3ccccc3nc21	98.4%
C#Cc1cccc(Nc2ncnc3cc(OCCOC)c(OCCOC)cc23)c1	93.1%
O=C1NC(=O)C(c2cn(CCCO)c3ncccc23)=C1c1cnccn1	99.7%
Nc1ccc2ncnc(NCCc3ccc(Oc4ccccc4)cc3)c2c1	104%
COc1ccc(C(=O)Nc2sc3c(c2C(N)=O)CCCC3)cc1OC	67.4%
Cc1nc(-c2ccccc2)c(-c2ccncc2)o1	103%
CCOC(=O)c1c(C)[nH]c(/C=C2\C(=O)Nc3ccccc32)c1C	66.6%
NCCNc1ncc(C(N)=O)c(Nc2cccc(C(F)(F)F)c2)n1	92.4%
COc1cc2nccc(Oc3ccc(NC(=S)NC(=O)c4ccccc4C)cc3)c2cc1OC	102%
COc1cc2ncnc(Nc3ccc(Oc4ccccc4)cc3)c2cc1OC	103%
O=C(Nc1cccc(Nc2cc(Nc3cccc(C(F)(F)F)c3)ncn2)c1)C1CC1	100%
O=C(CCCc1ccc(-c2ccccc2F)cc1)Nc1ccc(O)cc1	95.8%

Excerpt of the above (sample 4):
Structure (SMILES)	remaining activity
O=C1NC(=O)C(c2cn(CCCO)c3ncccc23)=C1c1cnccn1	99.7%
O=C(CCCc1ccc(-c2ccccc2F)cc1)Nc1ccc(O)cc1	95.8%
Cc1cccc(-c2[nH]c(C(C)(C)C)nc2-c2ccc3c(c2)OCO3)n1	96.4%
O=C(O)c1ccc2c3c1cccc3c(=O)n1c3ccccc3nc21	98.4%
